# Assay results gathered from unrelated publications.
# Protocols differ between the studies behind these lines. Numbers after ± are the reported error.
# SLC6A3: Sodium-dependent dopamine transporter (SLC6A3, Homo sapiens, UniProt Q01959)
# GPR39: G-protein coupled receptor 39 (GPR39, Homo sapiens, UniProt O43194)
# folP: Dihydropteroate synthase (folP, Bacteria, UniProt P0AC13)
SMILES,target or system,assay,system,conditions,scale,measurement,result
CSc1ccc2c(c1)C(N1CCN(C)CC1)Cc1ccccc1S2 (centres unmarked),"HTR1F (Homo sapiens, UniProt P30939)","G protein activation, agonist, BRET",,,,EC50,1140 nM
Nc1ncnc2c1ncn2[C@@H]1O[C@H](COP(=O)(O)OP(=O)(O)OC[C@H]2OC(O)[C@H](O)[C@@H]2O)[C@@H](O)[C@H]1OP(=O)(O)O (some centres unmarked),"TRPM2 (Nematostella vectensis, UniProt A7T1N0, H1174C)",agonist,,,,EC50,100 ± 6 nM
CCCCCCCC/C=C\CCCCCCCC(=O)NCCO,"Trpv1 (Mus musculus, UniProt Q704Y3, S511A)","ion current, agonist, whole-cell patch clamp",,"24 °C, S511A, +80 mV",,EC50,370 ± 130 nM
CC(C)Oc1cc(Cl)ccc1CNc1cc(-c2ccccc2)nc2ncnn12,"GPR3 (Homo sapiens, UniProt P46089, L159A)","cAMP level, agonist, cAMP GloSensor",,L159A mutant,,EC50,358 nM
CCOC(=O)C12CC1C(n1cnc3c(NC)nc(C#Cc4ccc(Br)s4)nc31)C(O)C2O (centres unmarked),SLC6A3,"ligand displacement, radioligand",,,,EC50,160 nM
Cc1ncsc1-c1ccc(C(C)NC(=O)C2CC(O)CN2C(=O)C(NC(=O)CCCCCCCCCCN2CCCC(Nc3ncc(Cl)c(Nc4ccccc4S(=O)(=O)C(C)C)n3)C2)C(C)(C)C)cc1 (centres unmarked),22Rv1,"RNA-seq, refers to: TDP1 mRNA",,concentration not given,reference: DMSO,log2 fold change,-1.03
CNC(=O)C12CC1C(n1cnc3c(NC)nc(C#Cc4ccccc4Cl)nc31)C(O)C2O (centres unmarked),SLC6A3,"ligand displacement, radioligand",,,,EC50,4100 nM
C[C@H](CCC(=O)O)[C@H]1CC[C@H]2[C@@H]3CC[C@@H]4C[C@H](OS(=O)(=O)O)CC[C@]4(C)[C@H]3CC[C@]12C,GPR39,"calcium flux, agonist, FLIPR",,with: Zn2+ 4 µM,,EC50,1800 ± 800 nM
COC(=O)CC(C)c1nn(C)c2nc(N)[nH]c(=O)c2c1=O (centres unmarked),folP,"thermal stabilisation, lysate HiBiT CETSA",,"63 °C, tested 0.01 to 200 µM",,EC50,> 200000 nM
COc1ccc(C(=O)c2c(C(=O)NCCCN(C)C)oc3ccc(Cl)cc3c2=O)cc1OC,"GHSR (Homo sapiens, UniProt Q92847)","beta-arrestin-2 recruitment, NanoBiT",HEK293T,,,EC50,141 nM
O=C(NC[C@@H](Cc1ccc(F)cc1)N1CCC(O)(C(F)(F)F)CC1)C1(c2ccc(Cl)cc2)CCCC1,"TRPA1 (Homo sapiens, UniProt O75762, T874N)",,,,,EC50,17000 nM
COc1cc(C2C(NC(=O)c3ccc(NC(=O)OC(C)(C)C)cc3)(C(=O)O)C(c3ccc(OC(=O)c4cccs4)c(OC)c3)C2(NC(=O)c2ccc(NC(=O)OC(C)(C)C)cc2)C(=O)O)ccc1OC(=O)c1cccs1 (centres unmarked),"GLP1R (Homo sapiens, UniProt P43220, Y152A)","cAMP, agonist",,,,EC50,151 nM
CC(CCC(=O)NCCS(=O)(=O)O)C1CCC2C3CCC4CC(OS(=O)(=O)O)CCC4(C)C3CCC12C (centres unmarked),GPR39,"calcium flux, agonist, FLIPR",,with: Zn2+ 4 µM,,EC50,9600 ± 6300 nM
CSCC[C@H](NC(=O)[C@H](CC(C)C)NC(=O)CNC(=O)[C@H](Cc1ccccc1)NC(=O)[C@H](Cc1ccccc1)NC(=O)[C@@H](N)CCC(N)=O)C(N)=O,"TACR1 (Homo sapiens, UniProt P25103)","calcium mobilization, Fura-2",Flp-In-HEK293,,,EC50,0.398 nM
CC[C@H](C)[C@H](NC(=O)[C@@H]1CCCN1C(=O)CNC(=O)[C@H](Cc1ccccc1)NC(=O)[C@H](CC(N)=O)NC(=O)[C@H](CC(N)=O)NC(=O)[C@H](CO)NC(=O)[C@H](CO)NC(=O)[C@H](Cc1c[nH]cn1)NC(=O)[C@H](CCCNC(=N)N)NC(=O)[C@H](CC(C)C)NC(=O)[C@H](Cc1ccccc1)NC(=O)[C@H](CCC(=O)O)NC(=O)[C@H](C)NC(=O)[C@H](CC(C)C)NC(=O)[C@H](CCCNC(=N)N)NC(=O)[C@H](CCC(N)=O)NC(=O)[C@@H](NC(=O)[C@H](C)NC(=O)[C@@H]1CSSC[C@H](NC(=O)[C@H](CCCCN)NC(=O)CC[C@H](NC(=O)CCCCCCCCCCCCCCCCCCC(=O)O)C(=O)O)C(=O)N[C@@H](CC(N)=O)C(=O)N[C@@H]([C@@H](C)O)C(=O)N[C@@H](C)C(=O)N[C@@H]([C@@H](C)O)C(=O)N1)[C@@H](C)O)C(=O)N[C@@H](CC(C)C)C(=O)N1CCC[C@H]1C(=O)N1CCC[C@H]1C(=O)N[C@H](C(=O)N[C@@H](CC(N)=O)C(=O)N[C@H](C(=O)NCC(=O)N[C@@H](CO)C(=O)N[C@@H](CC(N)=O)C(=O)N[C@H](C(=O)N1CCC[C@H]1C(N)=O)[C@@H](C)O)C(C)C)[C@@H](C)O,"Calcitonin-gene-related peptide receptor, CALCRL/RAMP1 (Homo sapiens, UniProt O60894+Q16602)","cAMP, agonist, TR-FRET",,,,EC50,70.3 nM
COc1ccc(NC(=O)C2CC(C)CCC2C(C)C)cc1 (centres unmarked),"TRPM8 (Homo sapiens, UniProt Q7Z2W7)","ion current, agonist, automated patch clamp",HEK293T,,,EC50,4000 nM
CC(C(=O)O)c1nn(C)c2nc(N)[nH]c(=O)c2c1=O (centres unmarked),folP,"thermal stabilisation, lysate HiBiT CETSA",,"63 °C, tested 0.01 to 200 µM",,EC50,2540 nM
CNc1ncnc2c1ncn2C1OC(CO)C(O)C1O (centres unmarked),"ADORA3 (Homo sapiens, UniProt P0DMS8, I253Q/V169F)","G protein activation, agonist",,,,EC50,1100 nM
C=CC(=O)Nc1cccc(Cn2ncc3cnc(Nc4cnn(CCOC)c4)nc32)c1,CSNK1G2 human,"binding, KINOMEscan",,100 nM,lower = stronger binding,percent of control,94%
COC1CN([C@H]2CC[C@H]([C@@]3(C)Oc4c(Cl)cc(C(=O)NCc5c(SC)cc(C)[nH]c5=O)c(C)c4O3)CC2)C1,,"RNA-seq, refers to: SH3D19 mouse homolog","mouse, HT-1376 xenograft, whole blood",dose not given,reference: vehicle,log2 fold change,0.276
[N-]=[N+]=Nc1c(C2CC2)cc(CC(=O)NC2(C(=O)O)CCCCC2)cc1C1CC1,"PYL8 (Arabidopsis thaliana, UniProt Q9FGM1)","phosphatase activity recovery, antagonist",,"with: HAB1, ABA 5000 nM",,EC50,12800 ± 1700 nM
Cn1c(=O)n(C2CCC(=O)NC2=O)c2ccc(C3CCN(CC(=O)Nc4cccc(CS(=O)(=O)N5CC[C@H](Nc6cccc(-c7sc(C(=O)O)c(OCC(=O)O)c7Cl)c6)CC5(C)C)c4)CC3)cc21 (some centres unmarked),"PTPN9 (Homo sapiens, UniProt P43378)",phosphatase activity,,with: DiFMUP substrate,,EC50,> 10000 nM
O=C(Cc1ccc(OCc2ccccc2)cc1)NC1(C(=O)O)CCN(C(=O)c2ccc(-c3cccc(Cl)c3)cc2)CC1,"LPAR4 (Homo sapiens, UniProt Q99677)","cAMP, agonist, luciferase",,,,EC50,> 10000 nM

# A few entries again:
SMILES,target or system,assay,system,conditions,scale,measurement,result
CC(C(=O)O)c1nn(C)c2nc(N)[nH]c(=O)c2c1=O (centres unmarked),folP,"thermal stabilisation, lysate HiBiT CETSA",,"63 °C, tested 0.01 to 200 µM",,EC50,2540 nM
O=C(NC[C@@H](Cc1ccc(F)cc1)N1CCC(O)(C(F)(F)F)CC1)C1(c2ccc(Cl)cc2)CCCC1,"TRPA1 (Homo sapiens, UniProt O75762, T874N)",,,,,EC50,17000 nM
